# Published values gathered from unrelated publications.
# Lines come from different studies, so protocols differ. Values joined by “and” are separate records of one study, mostly repeats; a detail may differ. ± gives the spread as reported.
# SCRIB PDZ3 domain: Protein scribble homolog, PDZ3 domain (SCRIB, Homo sapiens, UniProt Q14160)
# Chain of UniProt Q14160 (whole entry, looked up): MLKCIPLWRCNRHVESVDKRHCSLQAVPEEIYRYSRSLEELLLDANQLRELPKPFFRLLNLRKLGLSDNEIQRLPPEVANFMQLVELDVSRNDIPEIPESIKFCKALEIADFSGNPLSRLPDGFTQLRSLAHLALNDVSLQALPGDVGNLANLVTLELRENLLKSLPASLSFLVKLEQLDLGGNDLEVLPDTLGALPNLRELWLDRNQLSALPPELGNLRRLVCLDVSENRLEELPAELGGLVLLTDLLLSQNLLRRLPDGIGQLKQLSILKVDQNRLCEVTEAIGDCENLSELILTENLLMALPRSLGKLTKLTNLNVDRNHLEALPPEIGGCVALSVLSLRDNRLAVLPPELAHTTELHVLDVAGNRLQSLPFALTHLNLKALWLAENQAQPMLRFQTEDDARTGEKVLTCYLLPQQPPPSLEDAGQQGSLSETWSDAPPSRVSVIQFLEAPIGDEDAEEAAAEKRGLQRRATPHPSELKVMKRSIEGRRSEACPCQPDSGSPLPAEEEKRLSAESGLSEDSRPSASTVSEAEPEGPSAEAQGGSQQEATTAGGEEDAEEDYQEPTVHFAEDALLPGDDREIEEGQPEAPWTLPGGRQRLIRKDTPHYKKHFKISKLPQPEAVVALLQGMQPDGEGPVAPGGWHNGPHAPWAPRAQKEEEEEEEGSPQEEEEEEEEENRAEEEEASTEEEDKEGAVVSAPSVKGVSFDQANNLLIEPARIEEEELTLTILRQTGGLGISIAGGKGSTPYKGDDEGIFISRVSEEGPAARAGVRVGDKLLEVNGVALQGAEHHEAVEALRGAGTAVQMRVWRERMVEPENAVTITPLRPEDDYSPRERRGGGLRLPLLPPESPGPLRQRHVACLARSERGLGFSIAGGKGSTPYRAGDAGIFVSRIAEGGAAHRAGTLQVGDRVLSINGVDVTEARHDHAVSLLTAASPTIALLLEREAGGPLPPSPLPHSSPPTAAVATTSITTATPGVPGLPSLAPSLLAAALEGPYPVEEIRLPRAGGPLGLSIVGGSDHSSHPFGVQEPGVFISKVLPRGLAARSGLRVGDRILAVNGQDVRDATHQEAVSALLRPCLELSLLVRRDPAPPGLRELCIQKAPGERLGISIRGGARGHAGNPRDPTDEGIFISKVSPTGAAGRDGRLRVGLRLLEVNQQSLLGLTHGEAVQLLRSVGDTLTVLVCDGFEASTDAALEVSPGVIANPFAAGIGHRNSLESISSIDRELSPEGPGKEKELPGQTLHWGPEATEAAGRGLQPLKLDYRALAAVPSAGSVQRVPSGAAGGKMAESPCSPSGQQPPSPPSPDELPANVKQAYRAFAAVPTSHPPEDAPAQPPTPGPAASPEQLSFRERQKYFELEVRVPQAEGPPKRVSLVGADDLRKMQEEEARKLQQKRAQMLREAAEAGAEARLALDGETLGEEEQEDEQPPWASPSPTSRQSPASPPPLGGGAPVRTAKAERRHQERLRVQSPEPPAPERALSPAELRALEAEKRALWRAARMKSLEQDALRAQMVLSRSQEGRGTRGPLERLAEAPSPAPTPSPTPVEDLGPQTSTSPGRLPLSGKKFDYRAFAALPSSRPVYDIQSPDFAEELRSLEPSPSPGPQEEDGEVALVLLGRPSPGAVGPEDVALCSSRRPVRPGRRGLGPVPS
# Chain of UniProt P47900 (whole entry, looked up): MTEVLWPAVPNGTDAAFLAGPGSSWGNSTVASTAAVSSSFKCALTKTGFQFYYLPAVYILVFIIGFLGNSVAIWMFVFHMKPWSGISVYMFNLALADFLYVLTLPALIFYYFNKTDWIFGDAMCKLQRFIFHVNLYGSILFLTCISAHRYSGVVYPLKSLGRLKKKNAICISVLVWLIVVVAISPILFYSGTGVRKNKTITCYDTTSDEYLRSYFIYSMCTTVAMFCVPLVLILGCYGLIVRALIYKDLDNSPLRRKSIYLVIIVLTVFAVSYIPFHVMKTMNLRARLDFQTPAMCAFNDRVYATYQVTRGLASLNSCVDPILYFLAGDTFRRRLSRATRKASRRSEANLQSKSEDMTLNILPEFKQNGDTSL
# Chain of UniProt O15111 (whole entry, looked up): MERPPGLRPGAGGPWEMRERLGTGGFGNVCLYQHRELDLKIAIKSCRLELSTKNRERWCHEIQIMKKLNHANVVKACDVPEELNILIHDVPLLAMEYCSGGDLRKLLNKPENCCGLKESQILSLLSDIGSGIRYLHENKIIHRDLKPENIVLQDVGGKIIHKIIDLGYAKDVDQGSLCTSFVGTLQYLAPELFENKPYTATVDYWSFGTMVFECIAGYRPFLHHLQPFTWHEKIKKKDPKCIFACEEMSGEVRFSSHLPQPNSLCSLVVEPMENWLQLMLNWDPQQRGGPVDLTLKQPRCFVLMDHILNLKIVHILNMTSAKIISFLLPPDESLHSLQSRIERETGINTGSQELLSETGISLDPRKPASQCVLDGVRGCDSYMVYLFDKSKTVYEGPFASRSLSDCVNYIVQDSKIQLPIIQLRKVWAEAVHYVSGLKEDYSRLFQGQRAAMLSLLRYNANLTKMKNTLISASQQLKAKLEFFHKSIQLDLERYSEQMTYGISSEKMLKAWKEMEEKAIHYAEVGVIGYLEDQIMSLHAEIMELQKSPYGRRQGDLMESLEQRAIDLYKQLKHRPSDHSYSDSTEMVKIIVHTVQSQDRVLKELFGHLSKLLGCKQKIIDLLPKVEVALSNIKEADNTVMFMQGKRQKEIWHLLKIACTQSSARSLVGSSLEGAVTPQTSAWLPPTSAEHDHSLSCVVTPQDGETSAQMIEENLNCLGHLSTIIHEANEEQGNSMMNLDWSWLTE
# Chain of UniProt P00772 (whole entry, looked up): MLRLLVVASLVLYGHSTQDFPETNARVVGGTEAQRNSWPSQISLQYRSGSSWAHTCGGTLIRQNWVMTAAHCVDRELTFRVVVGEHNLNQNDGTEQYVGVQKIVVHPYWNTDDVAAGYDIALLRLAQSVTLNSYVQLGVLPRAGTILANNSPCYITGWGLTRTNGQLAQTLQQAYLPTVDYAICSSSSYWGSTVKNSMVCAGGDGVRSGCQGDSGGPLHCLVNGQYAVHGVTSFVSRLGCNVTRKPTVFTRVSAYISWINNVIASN
SMILES,tested on,test,system,setting,scale,quantity,result
CC(CCCN(CCCl)CCCl)Nc1ccnc2cc(Cl)ccc12.O=C(O)c1cc2ccccc2c(Cc2c(O)c(C(=O)O)cc3ccccc23)c1O,Dengue virus type 2,"viral replication, Rluc reporter replicon",BHK-21 DENV2 replicon cells,"50 µM, 24 h",,inhibition,47.5 ± 4.9%
COc1cc2c(Oc3ccc4[nH]c(C)cc4c3F)ccnc2cc1OCC1(N)CC1,,,paediatric recurrent refractory sarcoma,10 mg,,grade 1 or 2 Thrombocytopenia,50%
O=c1ccn([C@@H]2O[C@](F)(CO)[C@@H](O)[C@H]2O)c(=O)[nH]1,human respiratory syncytial virus,,recombinant reporter virus,"concentration not given, scale 0 to 100, added: adenosine 33.3 µM",,normalized viral replication,0
CCCCCCCCCCCCCCCC(=O)OCC(CSC[C@H](N)C(=O)N[C@@H](CO)C(=O)N[C@@H](CCCCN)C(=O)N[C@@H](CCCCN)C(=O)N[C@@H](CCCCN)C(=O)N[C@@H](CCCCN)C(=O)Nc1ccc(Cn2c(O)nc3c(N)nc(NCCCC)nc32)cc1)OC(=O)CCCCCCCCCCCCCCC (stereo partly drawn),HFF-1,,,"100 µg/mL, 48 h",,viability,12.1%
CCCCCCCCCCCCCCCC[N+](C)(C)CCCCCCCCCCCC[N+](C)(C)CCCCCCCCCCCCCCCC.[Br-].[Br-],influenza A virus A/PR/8/34 (H1N1),,,"concentration not given, co-treatment",,protection,83.6 ± 6.6%
CCNCCc1c[nH]c2cccc(O)c12.CCNCCc1c[nH]c2cccc(O)c12.O=C(O)CCC(=O)O,,,C57BL/6J mice,"subcutaneous, 0.03 mg/kg",,head twitch response,7.3 ± 1.9 count/30 min
Cc1ccccc1NC(=O)Nc1ccc(CC(=O)N[C@@H](CCCCNC(=O)/C=C/c2cccnc2)C(=O)N[C@@H](CCCC(=O)O)C(=O)NC2(C(=O)NCCOCCOCCOCCOCC(=O)N[C@@H](CCCCNC(=S)Nc3ccc(CCCN(CCN4CCN(CP(=O)(O)O)CCN(CP(=O)(O)O)CC4)CC(=O)O)cc3)C(N)=O)CCCCC2)cc1 [gallium-68 labelled],,,"mouse, liver","intravenous, 2 h post-injection",,tissue uptake,6.2 ± 1.2 %ID/g
CC(C)NCCc1c[nH]c2cccc(O)c12.O=C(O)/C=C/C(=O)O,,,C57BL/6J mice,"subcutaneous, 1 mg/kg",,head twitch count,10 ± 1.6
COc1ccc(OC)c(C(O)C(C)N)c1 (stereo not drawn),human iPSC-derived cardiomyocytes,"MyBP-C/MYH ratio, plate-normalised SD score",,"concentration not given, primary screen",direction not given,activity score,-3.2
CCCCCCCCCCCCCCCC[N+](C)(C)CCCCCC[N+](C)(C)CCCCCCCCCCCCCCCC.[Br-].[Br-],influenza A virus A/PR/8/34 (H1N1),,,"concentration not given, post-treatment",,HA titre reduction,4 ± 1 log units
C=CCNCCc1c[nH]c2cccc(O)c12.C=CCNCCc1c[nH]c2cccc(O)c12.O=C(O)/C=C/C(=O)O,,,C57BL/6J mice,"subcutaneous, 1 mg/kg, 30 min",,distance travelled,2660 ± 363 cm
Cn1c(=O)ccc2ccc(F)c(CCNC[C@H]3CN(c4cnc5c(n4)NC(=O)CO5)C(=O)O3)c21,Enterococcus faecalis,,,,,MIC50,0.03 µg/mL
C[C@H]1O[C@@H](O[C@H]2CC[C@@]3(C)[C@@H](CC[C@]4(C)[C@@H]3C=C[C@]35OC[C@@]6(CCC(C)(C)C[C@H]63)[C@@H](O)C[C@]54C)[C@]2(C)CO)[C@H](O)[C@@H](O[C@@H]2O[C@H](CO)[C@@H](O)[C@H](O)[C@H]2O)[C@H]1O,,,"mouse, ethanol-fed, hepatic SIRT1 knockdown, plasma","dose not given, 5 h, high dose",,total cholesterol,2.99 mM and 3.51 mM and 3.01 mM and 3.09 mM and 3.29 mM
CCCCCCCCCCCCCCCCCC[N+](C)(C)CCCCCCCCCC[N+](C)(C)CCCCCCCCCCCCCCCCCC.[Br-].[Br-],influenza A virus A/PR/8/34 (H1N1),,,"concentration not given, co-treatment",,HA titre reduction,5 log units
COc1ccc(-n2nc(C(C)=O)s/c2=N\N=C(/C)c2ccc(NC(C)=O)cc2)cc1,WI-38,,,10 µM,,toxicity,95.7%
C[C@H]1CN(c2n[nH]c3nc(N[C@H]4CC[C@H](NS(=O)(=O)CCC(F)(F)F)CC4)ncc23)CCO1,"Inhibitor of nuclear factor kappa-B kinase subunit alpha (CHUK, Homo sapiens, UniProt O15111)","inhibitor, Kinobeads competition profiling",,20 µM,relative to: vehicle,relative abundance,1.13
CSCC[C@H](N)C(=O)N[C@@H](CCC(=O)O)C(=O)N[C@@H](CCCNC(=N)N)C(=O)N[C@@H](CC(C)C)C(=O)N[C@@H](CCCNC(=N)N)C(=O)N[C@H](C(=O)N[C@@H](CCC(=O)O)C(=O)N[C@H](C(=O)N[C@@H](CC(=O)O)C(=O)N[C@H](C(=O)O)C(C)C)[C@@H](C)O)C(C)C,SCRIB PDZ3 domain,"binding, fluorescence polarization",solution,Scribble PDZ3 domain,,Kd,2.1 µM
O=C(O)/C=C/C(=O)O.Oc1cccc2[nH]cc(CCNC3CCCCC3)c12,,,C57BL/6J mice,"subcutaneous, 10 mg/kg, 30 min",,distance travelled,2620 ± 299 cm
COc1c(CCC[P+](c2ccccc2)(c2ccccc2)c2ccccc2)cc2c(c1OC)OCO2.[I-],HCC 2998,SRB,,,,TGI,-4.84 log M
CCCCCCCCCCCCCCCCCC[N+](C)(C)Cc1ccc(C[N+](C)(C)CCCCCCCCCCCCCCCCCC)cc1.[Br-].[Br-],influenza A virus A/PR/8/34 (H1N1),,,"concentration not given, post-treatment",,HA titre reduction,2 log units
COc1cc(Nc2ncc(F)c(Nc3ccc4c(n3)NC(=O)C(C)(C)O4)n2)cc(OC)c1OC,"Chymotrypsin-like elastase family member 1 (CELA1, Sus scrofa, UniProt P00772)","enzyme activity, inhibitor",,,,IC50,> 10 µM
CCCCNCCc1c[nH]c2cccc(O)c12.O=C(O)/C=C/C(=O)O,,,C57BL/6J mice,"subcutaneous, 10 mg/kg, 30 min",,distance travelled,2400 ± 293 cm
CS(=O)(=O)Nc1ncn(-c2cc(F)c(COc3ccc(OS(=O)(=O)F)cc3)c(F)c2)n1,Mycobacterium tuberculosis,,"NIH_G13, drug-resistant, lineage 4",,,MIC,0.03 µM
CCCNCCc1c[nH]c2cccc(O)c12.CCCNCCc1c[nH]c2cccc(O)c12.O=C(O)/C=C/C(=O)O,,,C57BL/6J mice,"subcutaneous, 0.1 mg/kg",,head twitch count,6.4 ± 1.7
CC[C@H](C)[C@H](NC(=O)[C@H](Cc1ccccc1)NC(=O)[C@H](CCC(=O)O)NC(=O)[C@H](CCCNC(=N)N)NC(=O)[C@H](C)NC(=O)[C@H](C)NC(=O)[C@H](CCC(N)=O)NC(=O)[C@H](CCC(=O)O)NC(=O)[C@H](CCC(=O)O)NC(=O)[C@H](CC(C)C)NC(=O)[C@H](Cc1ccc(O)cc1)NC(=O)[C@H](CO)NC(=O)[C@H](CO)NC(=O)[C@@H](NC(=O)[C@H](CC(=O)O)NC(=O)[C@H](CO)NC(=O)[C@@H](NC(=O)[C@H](Cc1ccccc1)NC(=O)[C@@H](NC(=O)CNC(=O)[C@H](CCC(=O)O)NC(=O)[C@H](C)NC(=O)CCc1c[nH]cn1)[C@@H](C)O)[C@@H](C)O)C(C)C)C(=O)N[C@@H](C)C(=O)N[C@@H](Cc1c[nH]c2ccccc12)C(=O)N[C@@H](CC(C)C)C(=O)N[C@H](C(=O)N[C@@H](CCCNC(=N)N)C(=O)NCC(=O)N[C@@H](CCCNC(=N)N)C(=O)N[C@@H](CCCCNC(=O)COCCOCCNC(=O)COCCOCCNC(=O)CC[C@H](NC(=O)CCCCCCCCCCCCCCCCC(=O)O)C(=O)O)C(=O)NCC(=O)NCC(=O)N[C@@H](CO)C(=O)N[C@@H](CCCCNc1c(NCCCCCN(O)C(=O)CCC(=O)NCCCCCN(O)C(=O)CCC(=O)NCCCCCN(O)C(C)=O)c(=O)c1=O)C(=O)O)C(C)C,,,"rat, plasma","intravenous, 20 nmol/kg",,dose-normalised AUC,143 kg·h/L
CC[C@H](C)[C@@H]1NC(=O)[C@@H]2CCCN2C(=O)[C@H](CC(C)C)NC(=O)[C@H](CC(C)C)NC(=O)CNC(=O)[C@@H](NC(=O)[C@@H](NC(=O)[C@H](CC(=O)O)NC(=O)CNC(=O)[C@@H](NC(=O)[C@H](C)NC(=O)CNC(=O)[C@H](CCCCN)NC(=O)[C@H](CC(C)C)NC(=O)[C@H](CC(C)C)NC(=O)[C@H](CCCCN)NC(=O)CNC(=O)[C@@H](NC(=O)[C@@H](N)CC(C)C)C(C)C)C(C)C)C(C)C)CSSC[C@@H](C(=O)O)NC1=O,,"RNA-seq, refers to: Traf1","mouse, traumatic brain injury model, frontal cortex and hippocampus",dose not given,relative to: TBI alone,log2 fold change,-2.15
CN1CCN(c2cc(-c3ccncc3)c(-c3ccc4ccccc4c3)nn2)CC1,"P2Y purinoceptor 1 (P2RY1, Homo sapiens, UniProt P47900)","agonist, FLIPR calcium",,12.5 µM,,activation,-4.6%
C[C@]12CC[C@H]3[C@@H](CC=C4CC(O)CC[C@@]43CO)[C@@H]1CCC2O (stereo partly drawn),,refers to: TIMP-1,"rat, GAN diet-induced MASH, plasma, pooled",dose not given,relative to: vehicle,fold reduction,~1.6 fold
CCCCC1(CCCC)CN(c2ccccc2)c2cc(SC)c(OCC(=O)N[C@@H](C(=O)NCC(=O)O)c3ccccc3)cc2S(=O)(=O)C1,,refers to: LDL cholesterol,"human, serum","5 mg once daily, day 14",,serum LDL-C,96 mg/dL
C[C@@H](O)[C@@H](CO)NC(=O)[C@@H](CCCNC(=N)N)NC(=O)[C@@H]1CCCN1C(=O)[C@@H]1CSSC[C@H](NC(=O)[C@H](Cc2ccccc2)NC(=O)CN2CCN(CC(=O)O)CCN(CC(=O)O)CCN(CC(=O)O)CC2)C(=O)N[C@@H](Cc2ccc(O)cc2)C(=O)N[C@@H](Cc2ccccc2)C(=O)N[C@@H](CCC(N)=O)C(=O)N[C@@H](CC(N)=O)C(=O)N1 [gallium-68 labelled],,,human serum,"2 h, 37 °C",,radiochemical purity,> 99%
CC[C@H](C)[C@H](NC(=O)[C@H](C)NC(=O)[C@H](CCCCN)NC(=O)[C@H](CC(C)C)NC(=O)[C@H](C)NC(=O)[C@@H](NC(=O)[C@H](Cc1c[nH]cn1)NC(=O)[C@H](CC(C)C)NC(=O)[C@@H](NC(=O)[C@@H](NC(=O)[C@H](CCCCN)NC(=O)[C@H](C)NC(=O)[C@H](C)NC(=O)[C@H](CO)NC(=O)[C@H](CCCCN)NC(=O)[C@H](Cc1ccccc1)NC(=O)[C@@H](NC(=O)[C@H](CCCCN)NC(=O)[C@H](CC(C)C)NC(=O)[C@H](Cc1ccccc1)NC(=O)[C@H](CO)NC(=O)[C@H](CCCCN)NC(=O)[C@H](Cc1c[nH]c2ccccc12)NC(=O)[C@H](CCCCN)NC(C)=O)[C@@H](C)O)[C@@H](C)O)C(C)C)[C@@H](C)O)C(=O)N[C@@H](CO)C(=O)N[C@@H](CO)C(N)=O,Streptococcus pyogenes,,erythromycin-sensitive,21 strains,,MBC90,64 µg/mL
CC(C)(C)NCCc1c[nH]c2cccc(O)c12.CC(C)(C)NCCc1c[nH]c2cccc(O)c12.O=C(O)/C=C/C(=O)O,,,C57BL/6J mice,"subcutaneous, 0.03 mg/kg, 30 min",,distance travelled,2500 ± 343 cm
CC(C)C[C@H](NC(=O)[C@H](CO)NC(=O)[C@H](CO)NC(=O)[C@H](CCC(=O)O)NC(=O)[C@H](Cc1ccc(O)cc1)NC(=O)[C@H](CO)NC(=O)[C@@H](NC(=O)[C@H](C)NC(=O)[C@@H](NC(=O)[C@@H](N)CCCCN)C(C)C)[C@@H](C)O)C(=O)O,SCRIB PDZ3 domain,"binding, fluorescence polarization",solution,Scribble PDZ3 domain,,Kd,3.2 µM

# Repeated from above:
SMILES,tested on,test,system,setting,scale,quantity,result
CCCCCCCCCCCCCCCC[N+](C)(C)CCCCCC[N+](C)(C)CCCCCCCCCCCCCCCC.[Br-].[Br-],influenza A virus A/PR/8/34 (H1N1),,,"concentration not given, post-treatment",,HA titre reduction,4 ± 1 log units
CC[C@H](C)[C@H](NC(=O)[C@H](C)NC(=O)[C@H](CCCCN)NC(=O)[C@H](CC(C)C)NC(=O)[C@H](C)NC(=O)[C@@H](NC(=O)[C@H](Cc1c[nH]cn1)NC(=O)[C@H](CC(C)C)NC(=O)[C@@H](NC(=O)[C@@H](NC(=O)[C@H](CCCCN)NC(=O)[C@H](C)NC(=O)[C@H](C)NC(=O)[C@H](CO)NC(=O)[C@H](CCCCN)NC(=O)[C@H](Cc1ccccc1)NC(=O)[C@@H](NC(=O)[C@H](CCCCN)NC(=O)[C@H](CC(C)C)NC(=O)[C@H](Cc1ccccc1)NC(=O)[C@H](CO)NC(=O)[C@H](CCCCN)NC(=O)[C@H](Cc1c[nH]c2ccccc12)NC(=O)[C@H](CCCCN)NC(C)=O)[C@@H](C)O)[C@@H](C)O)C(C)C)[C@@H](C)O)C(=O)N[C@@H](CO)C(=O)N[C@@H](CO)C(N)=O,Streptococcus pyogenes,,erythromycin-sensitive,21 strains,,MBC90,64 µg/mL
CC(C)C[C@H](NC(=O)[C@H](CO)NC(=O)[C@H](CO)NC(=O)[C@H](CCC(=O)O)NC(=O)[C@H](Cc1ccc(O)cc1)NC(=O)[C@H](CO)NC(=O)[C@@H](NC(=O)[C@H](C)NC(=O)[C@@H](NC(=O)[C@@H](N)CCCCN)C(C)C)[C@@H](C)O)C(=O)O,SCRIB PDZ3 domain,"binding, fluorescence polarization",solution,Scribble PDZ3 domain,,Kd,3.2 µM
Cn1c(=O)ccc2ccc(F)c(CCNC[C@H]3CN(c4cnc5c(n4)NC(=O)CO5)C(=O)O3)c21,Enterococcus faecalis,,,,,MIC50,0.03 µg/mL
CCCCCCCCCCCCCCCC[N+](C)(C)CCCCCCCCCCCC[N+](C)(C)CCCCCCCCCCCCCCCC.[Br-].[Br-],influenza A virus A/PR/8/34 (H1N1),,,"concentration not given, co-treatment",,protection,83.6 ± 6.6%
